Measured values pooled from the literature.
Protocols differ between the studies behind these lines. Numbers after ± are the reported error.
FGFR3: Fibroblast growth factor receptor 3 (FGFR3, Homo sapiens, UniProt P22607)
UniProt P22607, sequence (whole entry, looked up): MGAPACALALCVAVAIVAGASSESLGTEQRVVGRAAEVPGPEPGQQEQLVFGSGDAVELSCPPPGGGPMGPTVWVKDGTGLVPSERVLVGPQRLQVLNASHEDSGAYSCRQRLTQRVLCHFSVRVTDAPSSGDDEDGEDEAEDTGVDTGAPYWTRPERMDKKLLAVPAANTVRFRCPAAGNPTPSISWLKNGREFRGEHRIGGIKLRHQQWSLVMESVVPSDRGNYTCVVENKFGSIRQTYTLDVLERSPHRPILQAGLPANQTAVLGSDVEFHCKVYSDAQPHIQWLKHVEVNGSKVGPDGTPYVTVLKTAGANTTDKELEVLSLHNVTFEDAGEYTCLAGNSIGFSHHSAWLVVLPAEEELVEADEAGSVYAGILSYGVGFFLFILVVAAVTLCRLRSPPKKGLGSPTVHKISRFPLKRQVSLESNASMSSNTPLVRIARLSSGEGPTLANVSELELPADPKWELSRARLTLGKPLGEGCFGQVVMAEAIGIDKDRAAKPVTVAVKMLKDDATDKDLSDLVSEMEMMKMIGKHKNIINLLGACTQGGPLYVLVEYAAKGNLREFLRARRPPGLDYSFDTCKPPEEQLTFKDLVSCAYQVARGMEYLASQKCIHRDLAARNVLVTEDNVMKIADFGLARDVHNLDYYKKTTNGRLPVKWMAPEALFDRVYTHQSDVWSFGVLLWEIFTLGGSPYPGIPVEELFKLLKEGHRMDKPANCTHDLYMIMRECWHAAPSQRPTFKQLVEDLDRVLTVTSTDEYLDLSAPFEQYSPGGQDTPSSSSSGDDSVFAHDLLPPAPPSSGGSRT
UniProt P49674, sequence (whole entry, looked up): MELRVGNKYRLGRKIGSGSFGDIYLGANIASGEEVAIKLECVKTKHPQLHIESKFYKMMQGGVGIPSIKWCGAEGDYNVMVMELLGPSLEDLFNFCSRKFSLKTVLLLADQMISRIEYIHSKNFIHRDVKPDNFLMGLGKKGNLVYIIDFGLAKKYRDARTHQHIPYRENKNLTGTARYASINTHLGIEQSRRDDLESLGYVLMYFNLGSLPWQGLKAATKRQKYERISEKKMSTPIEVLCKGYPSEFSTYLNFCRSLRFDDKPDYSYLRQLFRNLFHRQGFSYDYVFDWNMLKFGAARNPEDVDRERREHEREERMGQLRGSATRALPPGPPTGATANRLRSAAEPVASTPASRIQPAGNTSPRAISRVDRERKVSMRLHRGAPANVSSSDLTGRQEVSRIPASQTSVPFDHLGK
UniProt Q04759, sequence (whole entry, looked up): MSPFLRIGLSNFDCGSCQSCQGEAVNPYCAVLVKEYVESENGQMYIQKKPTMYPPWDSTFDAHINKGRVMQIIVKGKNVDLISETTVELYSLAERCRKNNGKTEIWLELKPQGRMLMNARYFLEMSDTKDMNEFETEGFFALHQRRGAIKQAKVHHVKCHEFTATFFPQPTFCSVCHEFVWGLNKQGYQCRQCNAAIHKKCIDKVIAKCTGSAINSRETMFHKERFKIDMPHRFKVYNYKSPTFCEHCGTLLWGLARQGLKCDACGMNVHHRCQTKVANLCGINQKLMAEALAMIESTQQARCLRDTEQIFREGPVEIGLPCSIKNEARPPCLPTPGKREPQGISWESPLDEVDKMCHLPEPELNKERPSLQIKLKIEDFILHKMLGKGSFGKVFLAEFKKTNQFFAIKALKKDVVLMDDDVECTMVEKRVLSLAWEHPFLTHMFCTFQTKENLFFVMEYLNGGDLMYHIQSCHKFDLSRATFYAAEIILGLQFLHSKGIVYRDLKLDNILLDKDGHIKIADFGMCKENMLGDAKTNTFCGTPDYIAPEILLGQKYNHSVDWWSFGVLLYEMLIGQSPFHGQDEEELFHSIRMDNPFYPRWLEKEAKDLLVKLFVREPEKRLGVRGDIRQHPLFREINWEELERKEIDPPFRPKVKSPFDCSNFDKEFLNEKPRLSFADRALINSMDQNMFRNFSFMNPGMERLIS
UniProt Q00534, sequence (whole entry, looked up): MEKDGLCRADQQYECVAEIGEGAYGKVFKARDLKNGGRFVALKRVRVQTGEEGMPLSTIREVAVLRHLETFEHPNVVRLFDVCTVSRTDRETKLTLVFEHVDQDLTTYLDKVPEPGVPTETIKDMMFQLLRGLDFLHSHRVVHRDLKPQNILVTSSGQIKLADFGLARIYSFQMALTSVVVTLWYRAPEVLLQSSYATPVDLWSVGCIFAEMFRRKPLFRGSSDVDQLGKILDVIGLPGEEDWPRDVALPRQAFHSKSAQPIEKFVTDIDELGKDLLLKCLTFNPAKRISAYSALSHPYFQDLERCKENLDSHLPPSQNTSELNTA
UniProt Q9BZL6, sequence (whole entry, looked up): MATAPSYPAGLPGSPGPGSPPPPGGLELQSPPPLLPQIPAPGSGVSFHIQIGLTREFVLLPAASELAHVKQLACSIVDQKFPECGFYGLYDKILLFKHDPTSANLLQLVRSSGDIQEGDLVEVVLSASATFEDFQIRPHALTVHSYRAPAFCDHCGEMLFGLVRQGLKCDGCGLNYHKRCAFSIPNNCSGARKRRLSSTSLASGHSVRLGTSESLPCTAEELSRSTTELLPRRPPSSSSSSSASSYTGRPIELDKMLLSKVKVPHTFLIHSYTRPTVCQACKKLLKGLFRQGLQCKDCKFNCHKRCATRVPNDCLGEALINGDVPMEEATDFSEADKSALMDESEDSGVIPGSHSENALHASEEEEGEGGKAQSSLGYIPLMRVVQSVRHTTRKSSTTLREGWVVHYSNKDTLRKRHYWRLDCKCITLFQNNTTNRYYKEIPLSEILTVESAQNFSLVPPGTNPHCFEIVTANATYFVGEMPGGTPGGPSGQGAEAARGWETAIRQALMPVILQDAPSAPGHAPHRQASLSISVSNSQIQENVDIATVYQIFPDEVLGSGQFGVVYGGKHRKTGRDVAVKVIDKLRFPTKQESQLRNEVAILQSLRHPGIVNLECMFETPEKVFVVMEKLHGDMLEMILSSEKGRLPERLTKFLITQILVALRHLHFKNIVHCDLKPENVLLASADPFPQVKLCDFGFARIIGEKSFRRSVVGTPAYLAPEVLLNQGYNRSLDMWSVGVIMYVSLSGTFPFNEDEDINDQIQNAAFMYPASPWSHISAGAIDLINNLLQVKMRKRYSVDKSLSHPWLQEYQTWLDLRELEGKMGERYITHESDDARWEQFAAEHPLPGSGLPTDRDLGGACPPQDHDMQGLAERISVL
UniProt Q16288, sequence (whole entry, looked up): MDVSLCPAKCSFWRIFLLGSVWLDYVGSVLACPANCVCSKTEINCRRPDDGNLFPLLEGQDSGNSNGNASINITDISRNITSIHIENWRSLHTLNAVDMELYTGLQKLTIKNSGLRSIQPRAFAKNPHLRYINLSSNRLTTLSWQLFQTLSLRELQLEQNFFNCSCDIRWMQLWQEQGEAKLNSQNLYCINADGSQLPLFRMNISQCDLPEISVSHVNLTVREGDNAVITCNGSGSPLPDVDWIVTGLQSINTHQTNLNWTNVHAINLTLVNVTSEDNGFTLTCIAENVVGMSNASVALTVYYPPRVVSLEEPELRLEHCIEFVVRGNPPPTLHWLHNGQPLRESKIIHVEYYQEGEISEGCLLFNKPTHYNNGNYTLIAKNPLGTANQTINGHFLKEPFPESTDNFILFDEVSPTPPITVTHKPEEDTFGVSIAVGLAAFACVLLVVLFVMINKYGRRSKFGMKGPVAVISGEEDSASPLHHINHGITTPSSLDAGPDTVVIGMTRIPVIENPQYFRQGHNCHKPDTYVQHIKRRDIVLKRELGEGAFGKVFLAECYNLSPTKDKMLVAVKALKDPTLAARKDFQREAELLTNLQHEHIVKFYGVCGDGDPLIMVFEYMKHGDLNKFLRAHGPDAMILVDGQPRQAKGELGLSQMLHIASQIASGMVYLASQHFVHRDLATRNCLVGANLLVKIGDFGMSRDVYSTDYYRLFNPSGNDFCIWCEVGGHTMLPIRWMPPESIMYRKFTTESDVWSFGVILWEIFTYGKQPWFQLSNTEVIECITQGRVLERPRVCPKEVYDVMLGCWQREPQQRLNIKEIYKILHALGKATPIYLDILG
UniProt Q8NFD2, sequence (whole entry, looked up): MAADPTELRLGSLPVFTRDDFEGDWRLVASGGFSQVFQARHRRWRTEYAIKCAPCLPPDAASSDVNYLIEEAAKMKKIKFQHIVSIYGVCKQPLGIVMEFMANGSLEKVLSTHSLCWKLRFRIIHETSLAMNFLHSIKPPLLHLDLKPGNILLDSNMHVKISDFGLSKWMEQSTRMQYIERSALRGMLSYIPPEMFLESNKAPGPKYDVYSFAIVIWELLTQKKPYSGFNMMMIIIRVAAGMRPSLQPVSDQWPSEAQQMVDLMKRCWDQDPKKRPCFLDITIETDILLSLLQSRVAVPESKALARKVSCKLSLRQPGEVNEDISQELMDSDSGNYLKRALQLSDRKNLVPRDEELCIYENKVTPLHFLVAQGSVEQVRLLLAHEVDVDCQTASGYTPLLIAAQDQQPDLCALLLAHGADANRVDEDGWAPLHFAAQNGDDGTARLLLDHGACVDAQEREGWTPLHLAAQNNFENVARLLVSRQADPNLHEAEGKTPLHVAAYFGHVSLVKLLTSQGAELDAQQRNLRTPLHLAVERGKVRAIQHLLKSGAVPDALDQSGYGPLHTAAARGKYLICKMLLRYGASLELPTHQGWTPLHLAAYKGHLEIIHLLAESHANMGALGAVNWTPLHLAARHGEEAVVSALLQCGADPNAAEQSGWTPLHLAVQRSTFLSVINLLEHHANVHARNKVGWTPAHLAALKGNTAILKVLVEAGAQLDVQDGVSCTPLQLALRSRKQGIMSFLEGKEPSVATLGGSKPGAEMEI

Compound	target	assay	test system	conditions	scale	remaining activity
CNc1ncc2c(/C=C/C(=O)N3CCC(OC)CC3)nn(Cc3cccc(C(F)(F)F)c3)c2n1	Casein kinase I isoform epsilon (CSNK1E, Homo sapiens, UniProt P49674)	kinase activity, inhibitor	–	1 µM	reference: untreated control	101%
COc1cc(N2CCN(C)CC2)ccc1Nc1nc(N)n(C(=S)NCc2c(Cl)cccc2Cl)n1	Ankyrin repeat and protein kinase domain-containing protein 1 (ANKK1, Homo sapiens, UniProt Q8NFD2)	enzyme activity	–	10 µM	reference: control	15%
C=CC[C@H]1c2ccc(OC)c(OC)c2CN2CCc3cc4c(cc3[C@@H]12)OCO4	P2X purinoceptor 7 (P2RX7, Homo sapiens, UniProt Q99572)	ATP-evoked current, inhibitor, whole-cell patch clamp	HEK293 transfected	1 µM	–	89.9%
C=CC(=O)N1CCC[C@@H](n2nc(-c3ccc(Oc4ccccc4)cc3)c3c(N)ncnc32)C1	NT-3 growth factor receptor (NTRK3, Homo sapiens, UniProt Q16288)	–	–	10 µM	–	77.4%
O=C(O)c1ccc(Nc2ncc3c(n2)-c2ccc(Cl)cc2C(c2c(F)cccc2F)=NC3)cc1	LOK(h)	kinase activity	–	1 µM	–	95%
COc1ccc(F)cc1C(=O)NCc1ccc(-c2nn([C@@H](C)C(F)(F)F)c(N)c2C(N)=O)cc1	FGFR3	kinase activity, inhibitor, HotSpot radiometric	–	100 nM, added: ATP 10 µM	–	93.8 ± 1.1%
COc1cc(Nc2ncc3c(n2)-c2ccc(Cl)cc2C(c2c(F)cccc2OC)=NC3)ccc1C(=O)O	MST4	kinase activity	–	1 µM	–	100%
O=C(NC1CCC1)c1ccc2nc(-c3cccc(NS(=O)(=O)NCCN4CCCCC4)c3)cn2c1	Bone morphogenetic protein receptor type-1A (BMPR1A, Homo sapiens, UniProt P36894)	enzyme activity	–	10 µM	–	100%
COc1cc(F)ccc1-c1ncnc(Nc2cccc(C[S@](C)(=N)=O)c2)n1	Protein kinase C theta type (PRKCQ, Homo sapiens, UniProt Q04759)	kinase activity	–	10 µM, added: 10 µM ATP	–	102%
Cc1cc(Nc2cc(N3CCN(C)CC3)nc(Sc3ccc(NC(=O)C4CC4)cc3)n2)[nH]n1	Cyclin-dependent kinase 6, with cyclin D3 (CDK6, Homo sapiens, UniProt Q00534)	kinase activity, KinaseProfiler	–	0.03 µM, species human	reference: control	99%
COc1cc(-c2cncc3c2CN(C)Cc2cc(N4CCNCC4)ccc2-3)cc(OC)c1OC	Serine/threonine-protein kinase D2 (PRKD2, Homo sapiens, UniProt Q9BZL6)	kinase activity	–	1 µM, human enzyme, added: ATP 10 µM	reference: DMSO control	100%
C=CC(=O)N1CCC[C@@H](n2nc(-c3ccc(Oc4ccccc4)cc3)c3c(N)ncnc32)C1	FGFR3	kinase activity, inhibitor, HotSpot radiometric	–	100 nM, added: ATP 10 µM	–	74.4 ± 0.8%
